# Experimental data from different studies.
# Numbered parts are unrelated; each lists some results of a single study.
# Chain of UniProt O75716 (whole entry, looked up): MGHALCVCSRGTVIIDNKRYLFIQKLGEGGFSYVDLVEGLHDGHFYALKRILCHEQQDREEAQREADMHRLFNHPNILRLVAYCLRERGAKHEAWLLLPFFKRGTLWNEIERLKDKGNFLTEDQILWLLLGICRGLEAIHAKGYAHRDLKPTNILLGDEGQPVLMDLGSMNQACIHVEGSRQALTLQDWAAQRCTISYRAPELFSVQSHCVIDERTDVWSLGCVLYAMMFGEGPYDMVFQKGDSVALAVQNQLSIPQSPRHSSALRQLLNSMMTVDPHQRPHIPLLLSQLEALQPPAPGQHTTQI
# Chain of UniProt Q9H0K1 (whole entry, looked up): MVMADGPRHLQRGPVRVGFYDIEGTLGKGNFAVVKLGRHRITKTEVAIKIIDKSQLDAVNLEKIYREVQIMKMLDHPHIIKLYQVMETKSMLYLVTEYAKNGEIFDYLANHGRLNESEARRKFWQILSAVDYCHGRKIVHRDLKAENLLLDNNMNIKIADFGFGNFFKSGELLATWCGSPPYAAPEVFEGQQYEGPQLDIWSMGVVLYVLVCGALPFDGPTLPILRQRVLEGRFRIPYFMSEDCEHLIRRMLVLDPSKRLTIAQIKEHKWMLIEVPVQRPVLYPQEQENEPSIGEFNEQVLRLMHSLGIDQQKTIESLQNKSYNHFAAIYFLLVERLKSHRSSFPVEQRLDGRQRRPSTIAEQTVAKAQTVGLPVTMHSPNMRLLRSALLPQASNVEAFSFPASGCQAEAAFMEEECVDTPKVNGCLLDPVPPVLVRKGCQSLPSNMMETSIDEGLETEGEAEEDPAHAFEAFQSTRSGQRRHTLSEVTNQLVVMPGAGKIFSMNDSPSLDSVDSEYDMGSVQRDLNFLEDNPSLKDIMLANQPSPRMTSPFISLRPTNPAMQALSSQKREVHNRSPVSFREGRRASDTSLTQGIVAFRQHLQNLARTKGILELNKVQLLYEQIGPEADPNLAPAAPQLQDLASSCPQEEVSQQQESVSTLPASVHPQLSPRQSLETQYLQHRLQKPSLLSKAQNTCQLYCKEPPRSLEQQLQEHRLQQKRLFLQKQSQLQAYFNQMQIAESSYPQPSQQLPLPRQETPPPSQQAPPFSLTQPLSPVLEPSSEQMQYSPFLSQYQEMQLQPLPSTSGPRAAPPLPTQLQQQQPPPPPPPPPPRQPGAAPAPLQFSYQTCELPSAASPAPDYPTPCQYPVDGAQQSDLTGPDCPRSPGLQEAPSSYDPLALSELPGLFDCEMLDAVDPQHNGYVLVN
# Chain of UniProt Q9BYP7 (whole entry, looked up): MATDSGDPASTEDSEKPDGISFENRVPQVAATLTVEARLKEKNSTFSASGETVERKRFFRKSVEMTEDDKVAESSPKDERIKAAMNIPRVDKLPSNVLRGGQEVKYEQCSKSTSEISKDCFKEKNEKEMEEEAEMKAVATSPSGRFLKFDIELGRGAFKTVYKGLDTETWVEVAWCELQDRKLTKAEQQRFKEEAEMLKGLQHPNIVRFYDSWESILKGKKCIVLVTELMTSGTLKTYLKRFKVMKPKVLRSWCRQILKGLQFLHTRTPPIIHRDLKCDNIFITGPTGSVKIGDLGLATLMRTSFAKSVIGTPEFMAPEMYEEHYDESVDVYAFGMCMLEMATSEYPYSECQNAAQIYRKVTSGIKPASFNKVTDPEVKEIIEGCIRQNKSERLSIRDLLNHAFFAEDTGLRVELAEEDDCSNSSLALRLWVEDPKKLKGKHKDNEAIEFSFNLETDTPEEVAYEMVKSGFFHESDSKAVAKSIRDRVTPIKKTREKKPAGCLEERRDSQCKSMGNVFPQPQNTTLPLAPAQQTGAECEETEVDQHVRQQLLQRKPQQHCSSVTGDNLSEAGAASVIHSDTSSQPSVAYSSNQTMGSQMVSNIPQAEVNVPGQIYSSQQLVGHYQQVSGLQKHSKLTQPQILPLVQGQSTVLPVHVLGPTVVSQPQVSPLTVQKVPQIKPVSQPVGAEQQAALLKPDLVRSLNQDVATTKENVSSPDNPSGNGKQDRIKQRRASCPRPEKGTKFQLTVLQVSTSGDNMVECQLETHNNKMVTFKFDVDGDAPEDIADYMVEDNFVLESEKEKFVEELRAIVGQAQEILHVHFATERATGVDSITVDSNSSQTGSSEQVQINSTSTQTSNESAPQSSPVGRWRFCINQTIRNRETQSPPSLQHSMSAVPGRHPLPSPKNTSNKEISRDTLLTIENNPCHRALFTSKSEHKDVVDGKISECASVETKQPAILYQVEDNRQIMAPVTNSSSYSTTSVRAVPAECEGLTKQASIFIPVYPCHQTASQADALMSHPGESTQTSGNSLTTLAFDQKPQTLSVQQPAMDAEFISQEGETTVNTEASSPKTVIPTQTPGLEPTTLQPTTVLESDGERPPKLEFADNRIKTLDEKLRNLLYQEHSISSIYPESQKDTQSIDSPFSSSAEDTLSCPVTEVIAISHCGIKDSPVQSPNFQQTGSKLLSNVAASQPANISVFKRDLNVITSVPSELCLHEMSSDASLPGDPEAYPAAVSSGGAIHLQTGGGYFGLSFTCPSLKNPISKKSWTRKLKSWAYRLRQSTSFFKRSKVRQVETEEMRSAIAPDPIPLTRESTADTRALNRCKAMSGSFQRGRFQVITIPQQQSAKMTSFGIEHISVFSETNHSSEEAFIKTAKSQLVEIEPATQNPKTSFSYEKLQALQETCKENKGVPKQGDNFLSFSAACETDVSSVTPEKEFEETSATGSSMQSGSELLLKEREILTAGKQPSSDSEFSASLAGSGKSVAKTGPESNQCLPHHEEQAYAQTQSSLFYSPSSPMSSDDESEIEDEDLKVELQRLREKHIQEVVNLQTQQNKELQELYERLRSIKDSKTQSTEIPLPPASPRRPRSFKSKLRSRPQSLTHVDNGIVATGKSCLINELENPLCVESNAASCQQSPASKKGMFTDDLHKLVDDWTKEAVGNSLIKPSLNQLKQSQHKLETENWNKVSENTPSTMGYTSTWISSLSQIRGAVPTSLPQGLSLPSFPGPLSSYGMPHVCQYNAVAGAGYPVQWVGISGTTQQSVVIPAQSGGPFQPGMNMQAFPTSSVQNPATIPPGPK
# Chain of UniProt P42681 (whole entry, looked up): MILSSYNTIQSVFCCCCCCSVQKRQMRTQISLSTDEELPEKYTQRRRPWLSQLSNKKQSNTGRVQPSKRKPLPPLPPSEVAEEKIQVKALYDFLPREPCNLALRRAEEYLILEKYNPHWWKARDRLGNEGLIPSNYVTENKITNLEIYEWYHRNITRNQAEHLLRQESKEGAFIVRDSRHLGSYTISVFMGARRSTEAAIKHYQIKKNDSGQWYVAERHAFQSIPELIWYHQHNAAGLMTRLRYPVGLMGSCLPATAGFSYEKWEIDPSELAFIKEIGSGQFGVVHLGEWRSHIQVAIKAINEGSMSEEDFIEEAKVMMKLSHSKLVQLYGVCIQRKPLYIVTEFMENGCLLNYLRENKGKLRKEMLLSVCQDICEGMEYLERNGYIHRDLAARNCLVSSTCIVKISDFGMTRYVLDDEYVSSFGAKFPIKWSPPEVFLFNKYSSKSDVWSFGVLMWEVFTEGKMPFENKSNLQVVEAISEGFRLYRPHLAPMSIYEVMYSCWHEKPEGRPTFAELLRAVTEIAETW
# Chain of UniProt Q6P3R8 (whole entry, looked up): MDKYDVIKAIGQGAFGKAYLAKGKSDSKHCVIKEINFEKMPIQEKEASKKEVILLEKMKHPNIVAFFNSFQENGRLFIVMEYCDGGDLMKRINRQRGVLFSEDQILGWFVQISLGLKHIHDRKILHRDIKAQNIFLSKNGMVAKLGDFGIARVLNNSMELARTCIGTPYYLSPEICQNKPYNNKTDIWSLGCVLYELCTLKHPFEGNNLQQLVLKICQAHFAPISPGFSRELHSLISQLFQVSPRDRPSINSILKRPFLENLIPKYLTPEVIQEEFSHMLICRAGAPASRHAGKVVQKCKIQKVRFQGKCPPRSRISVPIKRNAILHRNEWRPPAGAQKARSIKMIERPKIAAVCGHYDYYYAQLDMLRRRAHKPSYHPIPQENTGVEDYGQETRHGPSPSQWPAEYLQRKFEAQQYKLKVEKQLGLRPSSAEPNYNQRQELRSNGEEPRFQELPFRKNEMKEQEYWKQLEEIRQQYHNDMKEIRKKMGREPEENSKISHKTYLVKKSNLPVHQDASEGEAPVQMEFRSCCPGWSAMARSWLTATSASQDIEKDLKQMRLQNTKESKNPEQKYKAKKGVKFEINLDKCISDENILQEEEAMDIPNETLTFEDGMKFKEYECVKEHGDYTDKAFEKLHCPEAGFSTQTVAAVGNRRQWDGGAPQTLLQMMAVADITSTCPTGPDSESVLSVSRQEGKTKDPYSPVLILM
# Chain of UniProt Q9H3Y6 (whole entry, looked up): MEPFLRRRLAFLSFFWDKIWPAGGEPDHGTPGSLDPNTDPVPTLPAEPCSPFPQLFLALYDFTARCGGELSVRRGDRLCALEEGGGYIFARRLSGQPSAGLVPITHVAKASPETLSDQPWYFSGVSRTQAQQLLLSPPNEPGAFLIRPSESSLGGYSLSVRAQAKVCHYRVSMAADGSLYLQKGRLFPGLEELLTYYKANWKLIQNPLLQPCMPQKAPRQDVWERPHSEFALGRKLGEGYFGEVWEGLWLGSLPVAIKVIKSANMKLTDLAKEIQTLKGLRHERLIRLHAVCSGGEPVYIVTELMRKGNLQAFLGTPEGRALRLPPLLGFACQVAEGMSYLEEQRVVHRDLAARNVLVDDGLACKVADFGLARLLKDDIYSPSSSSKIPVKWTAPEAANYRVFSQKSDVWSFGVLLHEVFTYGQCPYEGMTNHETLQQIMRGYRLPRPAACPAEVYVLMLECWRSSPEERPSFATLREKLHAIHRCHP

# Series 1 — Compound: O=C(O)/C=C/c1cc(Br)c(Br)c(Br)c1Br; effect on: enzyme activity; action: inhibitor; tested at: 0.5 µM; reference: control
target,remaining activity
"Tyrosine-protein kinase receptor UFO (AXL, Homo sapiens, UniProt P30530)",90.9%
"Calcium/calmodulin-dependent protein kinase type II subunit beta (CAMK2B, Homo sapiens, UniProt Q13554)",56.1%
"Tyrosine-protein kinase ABL1 (ABL1, Homo sapiens, UniProt P00519)",81.5%
"Dual specificity tyrosine-phosphorylation-regulated kinase 3 (DYRK3, Homo sapiens, UniProt O43781)",100%
"Serine/threonine-protein kinase WNK3 (WNK3, Homo sapiens, UniProt Q9BYP7)",89.8%
"Tyrosine-protein kinase Srms (SRMS, Homo sapiens, UniProt Q9H3Y6)",89.3%
"Homeodomain-interacting protein kinase 4 (HIPK4, Homo sapiens, UniProt Q8NE63)",102%

# Series 2 — technique: PRP-column chromatography
Compound,average log k' (20-100)
COCC(=O)NCCCCCC(=O)N[C@H](C(=O)N1C[C@H](O)C[C@H]1C(=O)NCc1ccc(-c2scnc2C)cc1)C(C)(C)C,0.881
Cc1ncsc1-c1ccc(CNC(=O)[C@@H]2C[C@@H](O)CN2C(=O)[C@@H](NC(=O)CCCCCOC(=O)CC23C[C@H]4C[C@@H](C2)C[C@@H](C3)C4)C(C)(C)C)cc1,1.32
CCCCOc1ccc(-c2ccc(C(=O)NCCCCCC(=O)N[C@H](C(=O)N3C[C@H](O)C[C@H]3C(=O)NCc3ccc(-c4scnc4C)cc3)C(C)(C)C)cc2)cc1,1.29
COCC(=O)OCCCCCC(=O)N[C@H](C(=O)N1C[C@H](O)C[C@H]1C(=O)NCc1ccc(-c2scnc2C)cc1)C(C)(C)C,0.988
CCCC(=O)NCCCCCC(=O)N[C@H](C(=O)N1C[C@H](O)C[C@H]1C(=O)NCc1ccc(-c2scnc2C)cc1)C(C)(C)C,0.944

# Series 3 — technique: competition with immobilised ligand; tested at: 1 µM
# Structure (SMILES): O=C(Nc1cnc(Oc2ccc(F)cc2)nc1)N1CCc2ncccc2[C@@H]1c1ccc(F)cc1
target,test,remaining binding [%]
"Serine/threonine-protein kinase Nek5 (NEK5, Homo sapiens, UniProt Q6P3R8)",cell-free assay,90
"Tyrosine-protein kinase TXK (TXK, Homo sapiens, UniProt P42681)",binding,87
"Serine/threonine-protein kinase/endoribonuclease IRE1 (ERN1, Homo sapiens, UniProt O75460)",cell-free assay,85
"Serine/threonine-protein kinase 16 (STK16, Homo sapiens, UniProt O75716)",cell-free assay,100
"Serine/threonine-protein kinase STK11 (STK11, Homo sapiens, UniProt Q15831)",cell-free assay,75
"Myosin light chain kinase 2, skeletal/cardiac muscle (MYLK2, Homo sapiens, UniProt Q9H1R3)",cell-free assay,90
"Mitogen-activated protein kinase kinase kinase 1 (MAP3K1, Homo sapiens, UniProt Q13233)",cell-free assay,89
"Mitogen-activated protein kinase kinase kinase 4 (MAP3K4, Homo sapiens, UniProt Q9Y6R4)",cell-free assay,89
"Ribosomal protein S6 kinase alpha-4, N-terminal kinase domain (RPS6KA4, Homo sapiens, UniProt O75676)",cell-free assay,91
"Dual specificity mitogen-activated protein kinase kinase 4 (MAP2K4, Homo sapiens, UniProt P45985)",cell-free assay,100
"Mitogen-activated protein kinase kinase kinase 3 (MAP3K3, Homo sapiens, UniProt Q99759)",cell-free assay,97
"Dual specificity tyrosine-phosphorylation-regulated kinase 1B (DYRK1B, Homo sapiens, UniProt Q9Y463)",cell-free assay,78
"MAP kinase-interacting serine/threonine-protein kinase 2 (MKNK2, Homo sapiens, UniProt Q9HBH9)",cell-free assay,94
"Bone morphogenetic protein receptor type-1B (BMPR1B, Homo sapiens, UniProt O00238)",cell-free assay,98
"Serine/threonine-protein kinase SIK2 (SIK2, Homo sapiens, UniProt Q9H0K1)",cell-free assay,89
"Dual specificity mitogen-activated protein kinase kinase 1 (MAP2K1, Homo sapiens, UniProt Q02750)",cell-free assay,93
"Bone morphogenetic protein receptor type-2 (BMPR2, Homo sapiens, UniProt Q13873)",cell-free assay,88

# Series 4 — cell line: A-375; tested at: 100 µM; time: 18 h
SMILES,viability [%]
Cc1noc(NS(=O)(=O)c2ccc(N)cc2)c1C,94.3
CC(C)(C)CC(C)(C)c1ccc(O)c(Cc2ccc(Cl)cc2Cl)c1,8.56
CC1(C)O[C@@H]2C[C@H]3[C@@H]4C[C@H](F)C5=CC(=O)C=C[C@]5(C)[C@H]4[C@@H](O)C[C@]3(C)[C@]2(C(=O)CO)O1,65.9
COc1c(C)c2c(c(O)c1C/C=C(\C)CCC(=O)O)C(=O)OC2,78.6
CN(c1nccc(=O)[nH]1)C1CCN(c2nc3ccccc3n2Cc2ccc(F)cc2)CC1,33.4
C[C@@H]1C[C@H]2[C@@H]3CCC4=CC(=O)C=C[C@]4(C)[C@@]3(F)[C@@H](O)C[C@]2(C)[C@@]1(O)C(=O)CO,87.6
NC(=O)c1ncn([C@@H]2O[C@H](CO)[C@@H](O)[C@H]2O)n1,93.9
O=C(Nc1ccc(O)cc1)c1ccccc1O,94.3
